# Results pooled from the literature.
# Numbered parts are unrelated; each lists some results of a single study.

# Block 1
# Target: Interferon regulatory factor 7, full length, phosphomimetic (IRF7, Homo sapiens, UniProt Q92985, residues 1-503, S101K/S471D/S472D/S475D/S476D/S477D/S483D/S484D/S487D)
# Method: protein-binding microarray
# Form: double-stranded DNA, one strand shown
# Medium: in vitro
# Tested at: 250 nM
# Setting: 60-bp whole probe
# With: salmon DNA 0.4 mg/ml
# Relative to: random background probes
# Reading: higher = stronger binding
# All sequences stand within: GCCTAGCAC … GTCTTGATTCGCTTGACGCTGCTG
# Construct (chain): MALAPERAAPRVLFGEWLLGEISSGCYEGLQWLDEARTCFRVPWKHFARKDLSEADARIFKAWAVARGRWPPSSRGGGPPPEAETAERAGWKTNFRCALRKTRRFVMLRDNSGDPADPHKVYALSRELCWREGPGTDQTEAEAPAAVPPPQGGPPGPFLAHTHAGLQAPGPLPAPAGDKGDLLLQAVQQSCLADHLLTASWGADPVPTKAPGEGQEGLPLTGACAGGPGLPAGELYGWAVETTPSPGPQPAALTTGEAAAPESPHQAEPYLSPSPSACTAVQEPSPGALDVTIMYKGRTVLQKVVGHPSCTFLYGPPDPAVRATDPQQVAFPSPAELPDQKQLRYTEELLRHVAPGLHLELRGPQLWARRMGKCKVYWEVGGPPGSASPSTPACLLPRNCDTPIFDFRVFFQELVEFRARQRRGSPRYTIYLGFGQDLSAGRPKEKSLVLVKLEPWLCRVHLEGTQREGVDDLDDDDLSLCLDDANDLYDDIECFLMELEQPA
Strand,log fluorescence [z-score]
TTAGATTTCAGTCTTGATTAGTGCTAG,0.486
TGAGCATACCATATCAGAAAGTGCTAG,-0.362
TTGGGTCTCGGTTTCGGTTAGTGCTAG,10.3
GACGCTCTCAGTTTCGAGACGTGCTAG,3.63
GACGATTTCGGCACTGGAGACGTGCTA,-0.02
TCATGTTTCCTCTTTCTACTGTGCTAG,3.45
TCAACTTTTTTTTTTCCACTGTGCTAG,0.674
TTAGATCTCAGACTGGATAAGTGCTAG,-0.107
GGACAGTAATGGAGGTATAAGTGCTAG,-0.767
TTAGGACTGGGTTTCAGTTAGTGCTAG,1.02
TTTGGTCTCCTACTGCTTTAGTGCTAG,0.252
GAGGGACTGGGTTTCGGGACGTGCTAG,2.17
TCCTCTTTCTCTGCTACCCTCGTGCTA,1.42
GACGAACTGAGACTGGAGCCGTGCTAG,-0.36
TTAGATCTCAGTTTCGAGTAGTGCTAG,4.3
TCATTTATGTACTCTCTAACTGTGCTA,1.56
GACGGTTACGGTCTCGGGACGTGCTAG,0.0811
TTAGGTTTCGGTACCGGTTAGTGCTAG,6.08
AGGGGACTGACTCTTCAGCACGTGCTA,-0.82
GACGGACTGGGGACTGGGGATGTGCTA,-0.396
TTCGGTTTCCTTCTCCTTTAGTGCTAG,3.44

# Block 2
# Target: RNA binding protein fox-1 homolog 2, RRM domain, GST-SBP tag (RBFOX2, Homo sapiens, UniProt O43251-10, residues 100-194)
# Method: RNA Bind-n-Seq
# Form: RNA
# Medium: in vitro
# Tested at: 365 nM
# Setting: natural RNA segment, single round, ends assumed
# Relative to: no-protein control
# Reading: higher = stronger binding
# All sequences stand within: GGGAGUUCUACAGUCCGACGAUC … UGGAAUUCUCGGGUGCCAA
# Residues (chain): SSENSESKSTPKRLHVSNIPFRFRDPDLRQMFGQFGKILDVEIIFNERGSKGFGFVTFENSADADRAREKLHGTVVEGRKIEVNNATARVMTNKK
Strand,RBNS enrichment (R)
GGCUGGCUAAUGCCAGCUCUCGGGGGCAGACUGGCUAGGUGUUUGUCCCUUGCACCCUAUGAUUAUUCUCAUGCUGCACUUACUGUUUACAUUUGUUUUAUUGUACAUAG,0.87
GCUCUCUUCUCCUGCAAGCGUAGUCUUCACAGGGAGUGGCUUCCUGACAUUUUUUUCAGUUAUGUGAAUGAAUGGAAACCAACAGCUGCUGCAAACACUGUUUUUCCAAG,0.447
UUUAGUGACCAGCUGAUCUUCCCUUGGAUCCUCCAAUAAAGGGGAAAAAAUACUUGUCUUAUGUUGUUUUAGCAAGGGAGUUCAGCCAAGUGACAGGAAAGAUUCCCUGG,0.623
GUUUUCUUGCAUUGAAAGAUAACUGAGUAAUAACCUGUAACUAUUUUUAAAUGGCAUGAAAUUAGGAAACUUUUGUACAUUUUAUAUACAUUUUGAGAUGAACAGAACAA,0.777
GGUAUUUCUAACGCCAGCACACUAUUUACAAGAUGGACUUACCUGGCAGACUUGCCCAGGUCACCAAGCAGUGGCCUUUUUCUGAGAUGCUCACUUUAUUAUCCCUAUUU,0.305
GAAAAUAUAUGUAAUAUGUAAAAAUAUGAAUGACUAUGUAUUCAAUAAAAAUAAUAUAGCACUGUAAUGCAGCUGCCUCUCUUCCUUUCCCUCUUCCAUCUCUUGCCUAG,0.818
UGUGUGACCCCUACCAGAACAGAGACUUUCCUCCUCUUGAAGUUCUCUGAGGGGCGCCAUCUUGACCUUGUGGUUCUCUCUGCAUCUUGACCUCUGUCUUGACAGUGCCC,2.2
AUCAGAAGUAUAAUGAAGUUGGAAUAAAUUCUUUAAAGUUUACUAUGUUGCCAGUGGUUUCACACAAAUUCCCUUGUAUUUAUUUGUUGAUUAAAUCAAGUGAGAAAGGU,0.697
GGACUCGGAGCACUGACCCCUGCGCUUGGAUUGCUAGACUCCUCUUCCUCCUGGACCCCAUCCUCUACCAUCCAAGCCCUGUCCCACUUUGGCCCUAUCCUCUCCAUUAG,0.367
CAGAGGAGAGAGACAUUCAGACAGAGGAAAGUCUCCCUGCCCCUCAUUCCUUCCAAGAUGAGAAAAACUUGCCGCCACCCCCCGACACUGAUGCCAGGGAGGUGGGAGGA,0.491
UGACUCUCGUGCACAGACAGCAUGCAGCAUACAGACUGAAACUGUGCUCUGCCGAGUAGAAAGUAGGUAGGGUCUGAAGGUGUCGAGAAGGCCUUACCUGUGGUGUGACA,3.33
AUUUGAGACAGGGUUGGACUCCCAUUUCUCAUCCGAGAAAUUACUUAACCCUUCCUGGCGCUGUACAGUCAUCUUUUAUUCUAUUUCCUCUUUGCUGUUUGUAGUAGAGA,0.377

# Block 3
# Target: Histone acetyltransferase KAT6A, winged helix 1, GST fusion (KAT6A, Homo sapiens, UniProt Q92794, residues 1-85)
# Method: protein binding microarray
# Form: double-stranded DNA, one strand shown
# Medium: in vitro
# Tested at: not given
# Setting: 8-mer, flanks averaged, mean of 2 arrays, mostly near background
# Relative to: not given
# Reading: higher = stronger binding
# Construct (chain): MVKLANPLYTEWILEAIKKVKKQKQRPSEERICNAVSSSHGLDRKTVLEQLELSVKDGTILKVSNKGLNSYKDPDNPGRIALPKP
Strand,E-score
AGTCTCGG,0.0625
GAGTTAGC,-0.13
CCCCAGTA,-0.0106
TAATAGTA,-0.0604
AATCGGGC,0.0805
CAAGTAGG,-0.221
CCGCAGGC,0.225
CGTCCGCC,0.4
ACAGGAAC,-0.191
ATGTGCCA,-0.159
GTTTGACA,-0.116
CCAACTAA,-0.137
TATGCAAA,-0.254
AACGCCTA,0.0269
GATCTGCC,-0.0881
ACACCTGG,-0.208
ATGGCGAC,0.00207
TGGATTAA,-0.221
CAGATTCC,0.00732
CTTACGTC,-0.095

# Block 4
# Target: RING finger protein unkempt homolog, zinc fingers 1-6, GST-SBP tag (UNK, Homo sapiens, UniProt Q9C0B0, residues 30-357)
# Method: RNA Bind-n-Seq
# Form: RNA
# Medium: in vitro
# Tested at: not given
# Setting: RNA with constant flanks, ends assumed
# Relative to: input RNA pool
# Reading: higher = stronger binding
# All sequences stand within: GGGAGUUCUACAGUCCGACGAUC … CAACAGAGGAUUGAGCAUCA
# Residues (chain): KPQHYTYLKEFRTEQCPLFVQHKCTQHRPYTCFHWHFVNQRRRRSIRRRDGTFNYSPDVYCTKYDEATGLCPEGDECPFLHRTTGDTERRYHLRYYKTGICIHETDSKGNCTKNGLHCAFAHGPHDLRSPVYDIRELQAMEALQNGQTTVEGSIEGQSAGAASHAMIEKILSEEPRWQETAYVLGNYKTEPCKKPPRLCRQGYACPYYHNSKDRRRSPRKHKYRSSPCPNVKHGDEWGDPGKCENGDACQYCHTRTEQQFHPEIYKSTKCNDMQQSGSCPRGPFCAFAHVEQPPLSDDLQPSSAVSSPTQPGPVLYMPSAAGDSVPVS
Strand,bound/input enrichment [ratio]
GGAAUUCAACCUGUAAUAGAUAAAUUAAGGGAACACGAAAAUUCAACAUUAGAUAGGCAUUCCGACUUUUUUGAAAUGCUCCGAAAUGAAGAUGAACUAGAAUUUGCCAAAAGAUUUGAA,1.59
UCACACCUUCUUAUAAAGUGUGAACAAGGAAGGUCAUGUUUUUGUGGGUAUUUUGUCAGACUCCGAGGUUUCAUUUCAGGGCAUAGUCAAAGGCAUCAUCCUCCCAACUACCCACUUGAU,0.275
AAAUUUAAAAAUUCUUUCUGUUGUACAGAAUUAAAUGAGGAAAACAAACAAUCUCAUUCGUUCCGUUUGCAGACUCCUUGUUCAAAAGGUAGUGAAUUAAGAACAAUUAAUAAGAUUUCU,1.58
UUCGUGCAGUUUGCUUCACAGGAAAUAGCUGAAAAGGCUCUAAAGAAACACAAGGAAAGAACCGGGCACAGGUAUAUUGAAAUAUUUAAGAGCAGUCGAGCUGAAGUUAGAACUCAUUAU,0.874
GACAAGUUUGAAAAACUUGUACAGACUGUGAGAGAUUAUCAUGCAACUUGGAAAACUGUCCGUAAUAAAUUAAAAAAUCAUCCUGAUUAUGAAGAAUAUAUCAACUUAGAGGGAACAAGA,1.52
CUAGCCAAACACCCAUGCAAUGCUUCAAUGGAAUGCGACAAAUGUCAGAGGCGGCAGAAGAACCGAGCAUUUUGCUAUUUUUGUAAUUCUGUUCAGAAGUUACCAAUUUGUGCACAGUGU,0.175
UCCAGUCUUACACUUAUGGUUGGCCUCAAAUCUAUUGCAUUUAUGAUAAUGUAUUAUAUCCCGUUGAGUUUAAUAUUUUUUUAUUAGCCUGUAAAUAAAGAUGGCAUCUUCUACAUUAAA,1.88
AUGGCUUGGAUGAUAUUAAGGACCGUUCGACACUUGGAGAGAAAUUGGGAGGCAAUGCCGCCGUUUCACUUGAAGGAAAACCAUUAUAAAAUGACAGUCAAGUGCCAUCUGGAUCUUAAG,0.152
CUGGCAGUGGAGGCAUGUGUGAAUAUUGCCCAGCUUCUGCCACAGGAGGACCUGGAGGCCUCCGUGAUGCCCACCUUGCGACAGGCUGCUGAGGACAAGUCUUGGCGUGUUCGCUACAUG,0.0528
CAGAUUUUGGCAGGAGUUAGAAUAAAUCCCGGGGCCUGGGCUUCUCUAUUCUUGGCCCUCCGCCGUCUCCCUCCGAGAGGAGGCCAGAGGGAGAGGAGGAUCUCAGCAGGCCUCUAGCCG,1.87
UAGGACACAUUCCCAGAAGAGCGGAAAGAUCAUUGACGUGGAACUACACACGAAGUGUAAUCCGUGGGGGAAAAAAUAUUUUUUAAACAAAGGAUAUAACCAUAUUUAGUUGUACAGUAA,2.21

# Some of these lines once more (block 4):
Strand,bound/input enrichment [ratio]
UUCGUGCAGUUUGCUUCACAGGAAAUAGCUGAAAAGGCUCUAAAGAAACACAAGGAAAGAACCGGGCACAGGUAUAUUGAAAUAUUUAAGAGCAGUCGAGCUGAAGUUAGAACUCAUUAU,0.874
GACAAGUUUGAAAAACUUGUACAGACUGUGAGAGAUUAUCAUGCAACUUGGAAAACUGUCCGUAAUAAAUUAAAAAAUCAUCCUGAUUAUGAAGAAUAUAUCAACUUAGAGGGAACAAGA,1.52
CUAGCCAAACACCCAUGCAAUGCUUCAAUGGAAUGCGACAAAUGUCAGAGGCGGCAGAAGAACCGAGCAUUUUGCUAUUUUUGUAAUUCUGUUCAGAAGUUACCAAUUUGUGCACAGUGU,0.175
UCCAGUCUUACACUUAUGGUUGGCCUCAAAUCUAUUGCAUUUAUGAUAAUGUAUUAUAUCCCGUUGAGUUUAAUAUUUUUUUAUUAGCCUGUAAAUAAAGAUGGCAUCUUCUACAUUAAA,1.88
AUGGCUUGGAUGAUAUUAAGGACCGUUCGACACUUGGAGAGAAAUUGGGAGGCAAUGCCGCCGUUUCACUUGAAGGAAAACCAUUAUAAAAUGACAGUCAAGUGCCAUCUGGAUCUUAAG,0.152
CUGGCAGUGGAGGCAUGUGUGAAUAUUGCCCAGCUUCUGCCACAGGAGGACCUGGAGGCCUCCGUGAUGCCCACCUUGCGACAGGCUGCUGAGGACAAGUCUUGGCGUGUUCGCUACAUG,0.0528
CAGAUUUUGGCAGGAGUUAGAAUAAAUCCCGGGGCCUGGGCUUCUCUAUUCUUGGCCCUCCGCCGUCUCCCUCCGAGAGGAGGCCAGAGGGAGAGGAGGAUCUCAGCAGGCCUCUAGCCG,1.87
UAGGACACAUUCCCAGAAGAGCGGAAAGAUCAUUGACGUGGAACUACACACGAAGUGUAAUCCGUGGGGGAAAAAAUAUUUUUUAAACAAAGGAUAUAACCAUAUUUAGUUGUACAGUAA,2.21
